Published values of several laboratories.
Values joined by “and” are separate records of one study, mostly repeats; a detail may differ. Numbers after ± are the reported error.
Sequence of UniProt P49760 (whole entry, looked up): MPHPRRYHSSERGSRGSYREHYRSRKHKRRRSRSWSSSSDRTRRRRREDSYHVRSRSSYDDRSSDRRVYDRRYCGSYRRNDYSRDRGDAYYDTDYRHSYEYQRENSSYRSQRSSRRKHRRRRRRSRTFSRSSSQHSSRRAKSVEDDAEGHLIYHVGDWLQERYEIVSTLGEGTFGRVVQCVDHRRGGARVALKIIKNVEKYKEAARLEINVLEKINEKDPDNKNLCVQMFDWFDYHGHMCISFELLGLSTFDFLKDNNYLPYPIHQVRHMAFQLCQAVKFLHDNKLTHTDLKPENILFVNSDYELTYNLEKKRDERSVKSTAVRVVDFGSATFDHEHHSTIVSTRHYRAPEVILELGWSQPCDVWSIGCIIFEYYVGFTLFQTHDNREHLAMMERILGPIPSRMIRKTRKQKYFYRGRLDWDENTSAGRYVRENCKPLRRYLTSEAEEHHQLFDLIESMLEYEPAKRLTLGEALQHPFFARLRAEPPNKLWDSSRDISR

Clc1ccc(-c2ccccc2)cc1: “serum free thyroxine” 35 ± 4 pmol/L (Sprague-Dawley rat female, serum; inhalation, 35 µg/rat, 24 h).
Under “subjects with drug-related hyperhidrosis”, C[C@]1(CO)Cc2ncn(-c3ccc(C#N)c(Cl)c3)c2C(=O)O1 is recorded as 11.1% (human; 20 mg multiple doses, fasted).
Under “adverse drug reaction incidence”, C=CC(=O)N1CC[C@H](n2nc(C#Cc3cc(OC)cc(OC)c3)c3c(N)ncnc32)C1 is recorded as 13.6% (patients with advanced solid tumours; oral, dose not given, Diarrhea, any grade, QD, added: sevelamer hydrochloride).
C[C@H]1CN(c2n[nH]c3nc(N[C@H]4CC[C@H](NS(=O)(=O)CCC(F)(F)F)CC4)ncc23)CCO1 has an IC50 of at least 20 µM (Dual specificity protein kinase CLK2 (CLK2, Homo sapiens, UniProt P49760); biochemical).
CO[C@H]1C[C@@H]2CC[C@@H](C)[C@@](O)(O2)C(=O)C(=O)N2CCCC[C@H]2C(=O)O[C@H]([C@H](C)C[C@@H]2CC[C@@H](OC(=O)NCCOCCOCCOCCOCCOCCOCCOCCOCCC(=O)N3CCc4cc(Cn5nc(-c6ccc7oc(N)nc7c6)c6c(N)ncnc65)ccc4C3)[C@H](OC)C2)C[C@@H](O)[C@H](C)/C=C(\C)[C@@H](O)[C@@H](OC)C(=O)[C@H](C)C[C@H](C)/C=C/C=C/C=C/1C gave a vomiting incidence of 25% (patients with advanced solid tumours; intravenous, 16 mg weekly, any grade).
For NC(=O)[C@H]1CCN(c2ncnc(N)c2F)C[C@@H]1N1CCC[C@@H](Nc2cc(Cl)cc(C(F)(F)F)c2)C1=O, “grade ≥3 neutropenia” read 67% (B-cell malignancy patients; oral, 20.5 mg twice daily, dose).
COc1cc(N2CCC(N3CCN(C)CC3)CC2)ccc1Nc1ncnc(Nc2ccccc2S(=O)(=O)C(C)C)n1: “treatment-emergent adverse events” 9 number (percent) (item: Fatigue; Japanese patients with solid tumours; oral, dose not given, all grades).
CN1CCN(S(=O)(=O)c2cc([N+](=O)[O-])ccc2N(CCOS(C)(=O)=O)CCOS(C)(=O)=O)CC1 has a hemoglobin of 118 g/L and 106 g/L and 156 g/L (NOD/SCID mouse, naive, blood; intraperitoneal, 25 mg/kg, week 2).
For O=S(=O)(Nc1ccccc1)c1ccc(NC(=S)Nc2ccccc2)cc1, “blood cell fraction” read 19.6% (item: NE%; male mouse, blood; oral, 80 mg/kg daily, 14 days).
Under “patients with adverse event”, CN1CC[C@@H](c2c(O)cc(O)c3c(=O)cc(-c4ccc(C(F)(F)F)cc4Cl)oc23)[C@@H]1CO is recorded as 12.5% (item: Sepsis; relapsed or refractory haematological malignancies; oral, dose not given, grade 3 to 4, all arms).
The Reticulocyte percentage of CCc1ccc(CC/C=C/c2ccc3c(c2)C(=O)CC3)cc1 is reported as 6.91% (Sprague-Dawley rat, male; oral, 450 mg/kg/day, 14 days).
With CC(=O)c1c(C)c2cnc(Nc3ccc(C4CCN(CCS(C)(=O)=O)CC4)cn3)nc2n(C2CCCC2)c1=O the Cmax was 188 ng/mL (human patients, plasma; oral, 75 mg twice daily, day 1 single dose, added: fulvestrant).
CC(C)C[C@H](NC(=O)[C@H](CCCCN)NC(=O)OCC1c2ccccc2-c2ccccc21)C(=O)N[C@H](C(=O)N[C@@H](Cc1ccccc1)C(=O)N[C@@H](Cc1ccccc1)C(=O)N[C@@H](CCCCN)C(=O)NCC(=O)N[C@@H](Cc1ccccc1)C(=O)N[C@@H](C)C(=O)N[C@@H](Cc1c[nH]c2ccccc12)C(=O)N[C@@H](CC(N)=O)C(=O)N[C@H](C(=O)N[C@H]1CSSC[C@@H](C(=O)N[C@@H](Cc2c[nH]cn2)C(=O)N[C@@H](CCCNC(=N)N)C(=O)N[C@@H](CCCNC(=N)N)C(=O)N[C@@H](C)C(=O)N[C@@H](CC(N)=O)C(N)=O)NC(=O)[C@H](C(C)C)NC(=O)[C@H](CCCNC(=N)N)NC(=O)[C@H](C(C)C)NC(=O)CNC(=O)[C@H](CC(N)=O)NC(=O)[C@H](CCCNC(=N)N)NC(=O)[C@H](Cc2ccc(O)cc2)NC(=O)[C@H](C(C)C)NC1=O)C(C)C)C(C)C gave a remaining peptide of 79.9% and 84.7% and 81.8% (HPLC; mouse mammary gland homogenate; 2560 µM, 4.00 h, 37 °C, 50 mg/mL tissue).
For Cc1cc(C)c(CNC(=O)c2cc(Cl)c3c(c2C)O[C@@](C)([C@H]2CC[C@H](N(C)C)CC2)O3)c(=O)[nH]1, “incidence of mental status changes” read 0% (relapsed/refractory NHL patients; dose not given, trial, safety set, all TEAEs grade 5).
For C=CCNc1c(O)cc2c(O)c1C[C@@H](C)C[C@H](OC)[C@H](O)[C@@H](C)/C=C(\C)[C@H](OC(N)=O)[C@@H](OC)/C=C\C=C(/C)C(=O)N2, “patients with ALT increase” read 0% (unresectable or metastatic sarcoma; intravenous, 300 mg/m^2, grade 3-4 lab change).
